Published values pooled from the literature.
Compare with care: the assays were run in different laboratories. Values joined by “and” are separate records of one study, mostly repeats; a detail may differ.
GBA1 R534H: Lysosomal acid glucosylceramidase (GBA1, Homo sapiens, UniProt P04062, R534H)
Sequence of UniProt P04062 (whole entry, unmodified, looked up): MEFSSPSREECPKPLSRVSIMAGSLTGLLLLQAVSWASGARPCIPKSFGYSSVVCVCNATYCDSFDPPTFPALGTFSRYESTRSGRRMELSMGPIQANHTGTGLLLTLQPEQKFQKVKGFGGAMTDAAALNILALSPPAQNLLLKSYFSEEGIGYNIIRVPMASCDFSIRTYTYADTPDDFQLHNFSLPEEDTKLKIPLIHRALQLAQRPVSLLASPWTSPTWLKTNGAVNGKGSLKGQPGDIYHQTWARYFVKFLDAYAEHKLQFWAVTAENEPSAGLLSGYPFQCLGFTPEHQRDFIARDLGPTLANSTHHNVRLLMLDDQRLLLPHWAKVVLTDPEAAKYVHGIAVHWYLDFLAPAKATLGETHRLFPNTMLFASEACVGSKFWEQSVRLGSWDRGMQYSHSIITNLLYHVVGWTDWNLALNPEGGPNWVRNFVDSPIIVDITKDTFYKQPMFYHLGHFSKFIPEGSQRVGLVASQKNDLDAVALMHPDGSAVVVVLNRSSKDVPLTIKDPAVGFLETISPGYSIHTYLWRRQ
Sequence of UniProt P05177 (whole entry, looked up): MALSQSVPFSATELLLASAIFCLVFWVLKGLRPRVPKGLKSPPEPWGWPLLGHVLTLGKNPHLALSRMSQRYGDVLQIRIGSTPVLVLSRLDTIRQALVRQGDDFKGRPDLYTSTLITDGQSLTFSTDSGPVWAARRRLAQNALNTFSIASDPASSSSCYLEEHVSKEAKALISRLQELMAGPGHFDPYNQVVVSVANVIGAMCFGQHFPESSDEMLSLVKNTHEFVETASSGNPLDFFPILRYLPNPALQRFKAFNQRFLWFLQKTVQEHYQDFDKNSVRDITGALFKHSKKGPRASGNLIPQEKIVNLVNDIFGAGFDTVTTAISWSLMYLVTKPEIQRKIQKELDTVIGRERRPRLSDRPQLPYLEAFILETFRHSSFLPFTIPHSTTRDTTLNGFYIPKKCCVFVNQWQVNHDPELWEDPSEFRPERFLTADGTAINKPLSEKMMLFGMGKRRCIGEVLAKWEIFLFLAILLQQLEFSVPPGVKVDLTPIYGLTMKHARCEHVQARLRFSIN

SMILES	target or system	test	system	setting	how to read	endpoint	result
COc1cccc(OC)c1-c1cc(C(=O)NC2(C(=O)O)C3CC4CC(C3)CC2C4)nn1-c1ccc(C(=O)NCCNC(=O)[C@H](CCCCNC(=O)[C@H](CC(C)C)NC(=O)C2OC2C(=O)O)NC(=O)CN2CCN(CC(=O)[O-])CCN(CC(=O)[O-])CCN(CC(=O)[O-])CC2)cc1C(C)C.[177Lu+3] (mixture of isomers)	HT-29 tumour model		host not given, pancreas	24 h, tumour-bearing		tracer uptake	0.5 %ID/g
O=C(NCc1cn(-c2ccccc2)nc1-c1ccccc1)c1cc([N+](=O)[O-])cc([N+](=O)[O-])c1	Trypanosoma cruzi	reporter mRNA translation, inhibitor, measured: capped polyadenylated Renilla luciferase mRNA	cell-free extract	concentration not given	baseline: control RNA	relative translation	92.9%
O=C1C2CC3CC1CC(C(=O)N1CCN(c4ccc([N+](=O)[O-])c5ncccc45)CC1)(C3)C2	Escherichia coli	Ames test	WP2 uvrA pKM101	0.02 µg/well, with S9 activation		revertant colony count	25 colonies/well
CC(C)(O)c1ncc([S@](N)(=O)=NC(=O)Nc2c3c(cc4c2CCC4)CCC3)s1		measured: musculoskeletal, connective tissue	healthy human	oral, dose not given, 14 days, all active multiple doses pooled		subjects with TEAEs	13%
COCC1CN(C2CCN(c3cc(OC)c(Nc4ncc(Br)c(Nc5ccc6c(c5P(C)(C)=O)OCCO6)n4)cc3C)CC2)C1			EGFR-mutant NSCLC patients, plasma	oral, 30 mg multiple doses, geometric mean		Cmax at steady state	660 ng/mL
N#C[C@@H]1CC(F)(F)CN1C(=O)CNC(=O)c1ccnc2c(NC(=O)[C@H](CCCCNC(=O)CCOCCOCCOCCOCCOCCOCCNC(=O)CN3CCN(CC(=O)[O-])CCN(CC(=O)[O-])CCN(CC(=O)[O-])CC3)NC(=O)CCCc3ccc(I)cc3)cccc12.[177Lu+3]	U-87 MG tumour model		host not given, muscle	1 h, tumour-bearing		tracer uptake	2.37 %ID/g
C[C@H](NP(=O)(O)OC[C@H]1O[C@@](C#N)(c2ccc3c(N)ncnn23)[C@H](O)[C@@H]1O)C(=O)O	primary human hepatocytes	measured: ATP		4 h		CC50	> 100000 nM
O=C1NC2(CC2)COc2ncc(F)cc2[C@H]2COCCN2c2ccn3ncc1c3n2	CHL	chromosomal aberration test		20 µg/mL, 24 h, without S9		polyploid cells	1%
OC[C@@H]1[C@@H](O)[C@H](O)[C@@H](O)CN1CCCCCOCc1ccc(-c2ccc(C(F)(F)F)cc2)cc1	GBA1 R534H	inhibitor, 4MU-β-D-glucopyranoside		added: 4MU-β-D-glucopyranoside		IC50	400 nM
N#C[C@@H]1CCCN1C(=O)CNC(=O)c1ccnc2ccc(OCCCN3CCN(C(=O)CCc4ccc5c(c4)CN4CCN(Cc6cc(CCC(=O)O)ccc6O)CC(=O)[O][Al-]([18F])([O]C(=O)C4)[O]5)CC3)cc12 (stereo partly drawn)	U-87 MG tumour model		host not given, muscle	2 h, tumour-bearing		tracer uptake	0.89 %ID/g
COc1cccc(OC)c1-c1cc(C(=O)NC2(C(=O)O)C3CC4CC(C3)CC2C4)nn1-c1ccc(C(=O)N(C)CCOCCN(C)C(=O)[C@H](CCCCNC(=O)[C@H](CC(C)C)NC(=O)C2OC2C(=O)O)NC(=O)CN2CCN(CC(=O)[O-])CCN(CC(=O)[O-])CCN(CC(=O)[O-])CC2)cc1C(C)C.[177Lu+3] (mixture of isomers)	HT-29 tumour model		host not given, pancreas	72 h, tumour-bearing		tracer uptake	0.13 %ID/g
CC(C)OCCOCc1ccc(OCC(O)CN(N=O)C(C)C)cc1 (stereo not drawn)	Salmonella typhimurium	Ames test	TA1535	15.8 µg/plate, 30 % rat S9	baseline: solvent control	revertant fold increase	0.9 fold
O=C(Nc1cnccc1-c1ccc([18F])nc1)c1ccnc(NC(=O)C2CC2)c1			FVB/NJ mice, both sexes, brain	intravenous, 15 min, median, no P-gp inhibitor		SUV	0.096
OC[C@@H]1[C@@H](O)[C@H](O)[C@@H](O)CN1CCCCCOCc1ccc2ccccc2c1	GBA1 R534H	inhibitor, 4MU-β-D-glucopyranoside		added: 4MU-β-D-glucopyranoside		IC50	1000 nM
O=C(C1CCCN(Cc2ccc(Cl)cc2)C1)N1CCCCC1.O=C(O)C(=O)O (stereo not drawn)	Trypanosoma cruzi	reporter mRNA translation, inhibitor, measured: capped polyadenylated Renilla luciferase mRNA	cell-free extract	concentration not given	baseline: control RNA	relative translation	110%
COc1ccc2c(c1)C(C)(C)C(/C=C/C1=C(Oc3ccc(C(=O)NCCCCOc4cc(CN(Cc5ccccn5)Cc5ccccn5)cc(CN(Cc5ccccn5)Cc5ccccn5)c4)cc3)C(=C/C=C3/N(CCCCS(=O)(=O)[O-])c4ccc(OC)cc4C3(C)C)CCC1)=[N+]2CCCCS(=O)(=O)[O-].O=[N+]([O-])[O-].O=[N+]([O-])[O-].[99Tc+].[C-]#[O+].[C-]#[O+].[C-]#[O+].[Zn+2]	Staphylococcus aureus		BALB/c mice, myositis, large intestine and caecum	intravenous, 0.74 MBq, 12 h post-injection		tissue uptake	52.5 %ID/g and 32.8 %ID/g and 33.5 %ID/g and 55.8 %ID/g
CNC(=O)C1CCCN(C(=O)C2CC3CCC2N3C(=O)[C@@H]2C[C@@H](O)CN2C(=O)NCc2cccc(Cl)c2F)C1 (mixture of isomers)	Cytochrome P450 1A2 (CYP1A2, Homo sapiens, UniProt P05177)	preincubation without NADPH	human	50 µM	baseline: negative control	remaining activity	99.2% and 98.3%
CCN(CC)CC#CCNc1ccnc2cc(Cl)ccc12	Salmonella typhimurium	mini-Ames test	TA98	1000.0 µg/well, without S9		revertants	5 revertants/well and 1 revertants/well
CN1CCCNC(=O)c2cccc(c2)C(=O)NCCCN(C)CCCNc2cccc3c2C(=O)c2cccc(c2C3=O)NCCC1	SAS	cell growth or viability, CCK-8		50 nM, 48 h		viability	94.7%
N#C[C@@H]1CC(F)(F)CN1C(=O)CNC(=O)c1ccnc2c(NC(=O)[C@@H](N)CCCCNC(=O)CCOCCOCCOCCOCCOCCOCCNC(=O)CN3CCN(CC(=O)[O-])CCN(CC(=O)[O-])CCN(CC(=O)[O-])CC3)cccc12.[177Lu+3]	U-87 MG tumour model		host not given, stomach	1 h, tumour-bearing		tracer uptake	0.4 %ID/g
CCCC[C@H](NC(C)=O)C(=O)N[C@@H](CO)C(=O)N[C@H](C(=O)N1CCC[C@H]1C(=O)N[C@]1(C)CCCCCCC=CCCC[C@@](C)(C(=O)N[C@@H](Cc2ccccc2)C(=O)N[C@@H](CCCCN)C(=O)N[C@@H](CCCNC(=N)N)C(=O)N[C@@H](CC(C)C)C(=O)N[C@@H](CCC(N)=O)C(N)=O)NC(=O)[C@H](CCCNC(=N)N)NC(=O)[C@H](CCCC)NC(=O)[C@H](CC(C)C)NC(=O)[C@H](CCCNC(=N)N)NC(=O)[C@H](CCCNC(=N)N)NC(=O)[C@H](CCCNC(=N)N)NC1=O)[C@@H](C)O	proteinase K	LC-MS		25 µM, 553.6 min, pH 7.4		remaining peptide	38% and 41.6%
